Measured values of several laboratories.
Parts stem from different laboratories: compare values within a part only. Positions count from the first letter of the parent shown.

Block 1
Target: Phosphate system positive regulatory protein PHO4, full length, GST-tagged (PHO4, Saccharomyces cerevisiae, UniProt P07270, residues 1-312)
Method: competition protein-binding microarray
Molecule type: double-stranded DNA, one strand shown
Sample: in vitro
Concentration: 2 µM
Setting: whole 60-bp probe, lowest competitor level
With: Cbf1 competitor, 0.05 µM
Reading: higher = stronger binding
Constant ends, left off below: … GTCTTGATTCGCTTGACGCTGCTG
Construct (chain): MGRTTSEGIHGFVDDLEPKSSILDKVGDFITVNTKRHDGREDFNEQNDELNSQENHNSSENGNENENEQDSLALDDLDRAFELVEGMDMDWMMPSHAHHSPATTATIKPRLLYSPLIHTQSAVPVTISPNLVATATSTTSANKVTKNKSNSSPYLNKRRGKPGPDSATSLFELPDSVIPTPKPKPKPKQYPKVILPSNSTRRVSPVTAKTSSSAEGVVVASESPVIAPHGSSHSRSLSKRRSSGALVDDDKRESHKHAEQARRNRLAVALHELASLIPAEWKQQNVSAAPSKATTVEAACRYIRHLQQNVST
| Sequence | fluorescence intensity |
| --- | --- |
| GTCTTGTCTCATTGAGTAGTGGGTGTCCCCACTTCA | 4430 a.u. |
| TTTTCTTTTCTGTTAAACGTGTGAATTGTCGTTCCT | 9760 a.u. |
| TTTTGTGAGCTTTCTTTTTACTCAAACGAACTGTGT | 3100 a.u. |
| CGTCCTAGTGATTGGGGGGTGGGTGCCATGAGGAAG | 8360 a.u. |
| CATACCCAACCTTGGCATGTGGGTGAAGATATTTGT | 13000 a.u. |
| GTTTCAGAAAATCCATGTCATTAAAGAGCTTTATCA | 3420 a.u. |
| GTCTTGTCTCATTGCCTAGTGGGTGTCCCCACTTCA | 5640 a.u. |
| GTAAGTCGTCAAAGGGGCGTGGGTAAGCCATTTCTT | 10500 a.u. |
| AATGATATCACCAGTACCGTGACGGACATCAAACTC | 4090 a.u. |
| CTTTCCCGATCTTTTCACGTGCCTTTAGCACATTTG | 14500 a.u. |
| CTCGCGTTAGAGCAGTACGTGGCCGAGCTAAACTCG | 5500 a.u. |

Block 2
Target: Interferon regulatory factor 5, full length, phosphomimetic (IRF5, Homo sapiens, UniProt Q13568-2, residues 1-514, S451D/S453D/S456D/S462D)
Method: protein-binding microarray
Molecule type: double-stranded DNA, one strand shown
Sample: in vitro
Concentration: 940 nM top
Setting: 60-bp whole probe
With: salmon DNA 0.4 mg/ml
Reference: random background probes
Reading: higher = stronger binding
Constant ends, left off below: GCCTAGCAC … GTCTTGATTCGCTTGACGCTGCTG
| Sequence | fitted relative affinity [z-score] |
| --- | --- |
| TCAAGGTTGTTTCTAATACTGTGCTAG | 0.33 |
| AGAGTTCCAGACAGCTCCCTGTGCTAG | -0.207 |
| GACGGTTTCCTACGGCTGACGTGCTAG | 0.348 |
| TTCCAGCTGGTGACTAGCGAGTGCTAG | 0.0538 |
| GATGATTTCAGTCTCGAGACGTGCTAG | 1.63 |
| AAGTGTGCCCATCTCTGCTCGTGCTAG | 0.145 |
| TTTTTTTTGGAATGTCTTCCCGTGCTA | 0.594 |
| GACGGTCTCGGTCTTGGGACGTGCTAG | 3.57 |
| TTAGAACTGGGGTTTCGATTGGTGCTA | 5.28 |
| TGGAAACTCGTATGTGACCTTGTGCTA | -0.188 |
| GACGGTCTCCTTATCCGGACGTGCTAG | 0.555 |
| GACGGTCTCGGTTTCGGGCCGTGCTAG | 6.18 |
| TTAGGACTGGTTCTCGGTTAGTGCTAG | 1.71 |
| GACGGTTTCGACACTGGCGACGTGCTA | 7.05 |
| CTGATCCTTCATTTGAAAGAGTGCTAG | -0.000364 |
| TCACCTGTCTACATGGGACTGTGCTAG | 0.0825 |
| TCAAGTTTTACTTTCTAACTGTGCTAG | 1.07 |
| GACGGTTTCAGGTATCGGGACGTGCTA | 4.88 |
| GACGGTTTCTGGACTGGGGACGTGCTA | 1.65 |
| TTAGGACTGCATATCCTTTAGTGCTAG | -0.862 |

Block 3
Target: ABI1, truncated, D143A, DHFR fusion (Arabidopsis thaliana)
Method: DHFR PCA, deep sequencing
Sample: yeast
Setting: methotrexate growth selection, single substitutions
With: (+)-ABA 58 µM
Reference: wild-type fitted maximum
Reading: higher = stronger binding
Starting sequence: PYL1, truncated, DHFR fusion (Arabidopsis thaliana); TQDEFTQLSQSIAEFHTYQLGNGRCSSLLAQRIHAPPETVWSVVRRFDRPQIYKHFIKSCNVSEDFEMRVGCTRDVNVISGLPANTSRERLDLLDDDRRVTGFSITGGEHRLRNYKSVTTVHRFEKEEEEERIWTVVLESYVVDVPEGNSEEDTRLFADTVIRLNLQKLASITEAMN
| Change | relative binding score |
| --- | --- |
| E174M | 66.3% |
| S42I | 35.1% |
| G108C | 14.3% |
| E64I | 74.3% |
| V121D | 5.08% |
| W41Y | 13.3% |
| V70T | 71.2% |
| T1Y | 84.9% |

Block 4
Target: Fragile X messenger ribonucleoprotein 1, C-terminal low-complexity region (Fmr1, Mus musculus, UniProt P35922)
Method: RNA Bind-n-Seq
Molecule type: RNA
Sample: in vitro
Concentration: 200 nM
Setting: whole 134-nt RNA, ends assumed
With: 150 mM KCl
Reference: input library
Reading: higher = stronger binding
Constant ends, left off below: GGGAGUUCUACAGUCCGACGAUC … UGGAAUUCUCGGGUGUCAAGG
| Sequence | log2 enrichment |
| --- | --- |
| UGGCCCUGGUGGCAUGCGGGGAGGAAGAGGUGGCCUCAUGGAUCGUGGUGGCCCCGGUGGAAUGUUCAGAGGUGGCCGUGGUGGAGACAG | 0.00528 |
| GGAAGGGGGCUUGCGCCACGGCAGUGAAUCUUCAUGGAUCUUCAUGCAGCCAUACAAACCCUGGUUCCAACAGAAUGGUGAAUUUUCGAC | -1.25 |
| UUGGGUUCAAUAUACGGAGAGUGCCCUGUGCCAAAGCCACGAGUUGAUCGUCCAAGAAAAGUUCCUGUGAUACAAGAGGAGAGGGCAAUG | -1.47 |
| UGUGCUACACAUCGUAUGUACCGAAUCGGGUUUUUUUGGGGUUUUUUUGGGUUUUUUUGGGGAAAGUAUUAUGUUACGCCGUUCGGAUCU | 0.169 |
| CUGUGCUACACAUCGUAUGUACCGAAUCGGGUUUUUUUGGGUUUUUUUGGUUUUUUUGGGGAAAGUAUUAUGUUACGCCGUUCGGAUCUG | -0.866 |
| UUGCUGUCACCCGCUGCCUGUCUGCAGGAUCCCGGAUUCCGUAUCAGGGGACCGAAAUUAGUCGGAAAAUAGGAAGCAGGUGCUCGCUUG | -1.62 |
| UCCUCAAGUCCUGUGCUACACAUCGUAUGUACCGAAUCGGCGGCGGGCGGGGAAAGUAUUAUGUUACGCCGUUCGGAUCUGCACUUCCAG | 0.444 |
| UGUGCUACACAUCGUAUGUACCGAAUCGGGGUUUUUUUGGGGUUUUUUUGGGGAAAAAGGGGAAAGUAUUAUGUUACGCCGUUCGGAUCU | 0.203 |

Further values, each from its own experiment
| Molecule | target | assay | system | setting | scale | measurement | result |
| --- | --- | --- | --- | --- | --- | --- | --- |
| PhoQ, residues 284 288 289 292 302 303 TVTVVA | PhoP, residues 12 14 15 18 19 NFCKL (Escherichia coli, UniProt P23836) | Sort-seq, measured: YFP reporter | E. coli | PhoQ-PhoP variant library, with: 10 µM Mg2+ | reference: high Mg2+ state, higher = stronger signaling | fold induction | 17.1 |

For quick reference, copied from above (block 1):
| Sequence | fluorescence intensity |
| --- | --- |
| GTTTCAGAAAATCCATGTCATTAAAGAGCTTTATCA | 3420 a.u. |
| GTCTTGTCTCATTGCCTAGTGGGTGTCCCCACTTCA | 5640 a.u. |
| GTAAGTCGTCAAAGGGGCGTGGGTAAGCCATTTCTT | 10500 a.u. |
| AATGATATCACCAGTACCGTGACGGACATCAAACTC | 4090 a.u. |
| CTTTCCCGATCTTTTCACGTGCCTTTAGCACATTTG | 14500 a.u. |
| CTCGCGTTAGAGCAGTACGTGGCCGAGCTAAACTCG | 5500 a.u. |
